Measured values from different studies.
Each line is one published result; not all experiments were run side by side. ± marks the error that the study gave.
USP33 ZnF-UBD domain: Ubiquitin carboxyl-terminal hydrolase 33, ZnF-UBD domain (USP33, Homo sapiens, UniProt Q8TEY7)
UniProt Q8TEY7, sequence (whole entry, looked up): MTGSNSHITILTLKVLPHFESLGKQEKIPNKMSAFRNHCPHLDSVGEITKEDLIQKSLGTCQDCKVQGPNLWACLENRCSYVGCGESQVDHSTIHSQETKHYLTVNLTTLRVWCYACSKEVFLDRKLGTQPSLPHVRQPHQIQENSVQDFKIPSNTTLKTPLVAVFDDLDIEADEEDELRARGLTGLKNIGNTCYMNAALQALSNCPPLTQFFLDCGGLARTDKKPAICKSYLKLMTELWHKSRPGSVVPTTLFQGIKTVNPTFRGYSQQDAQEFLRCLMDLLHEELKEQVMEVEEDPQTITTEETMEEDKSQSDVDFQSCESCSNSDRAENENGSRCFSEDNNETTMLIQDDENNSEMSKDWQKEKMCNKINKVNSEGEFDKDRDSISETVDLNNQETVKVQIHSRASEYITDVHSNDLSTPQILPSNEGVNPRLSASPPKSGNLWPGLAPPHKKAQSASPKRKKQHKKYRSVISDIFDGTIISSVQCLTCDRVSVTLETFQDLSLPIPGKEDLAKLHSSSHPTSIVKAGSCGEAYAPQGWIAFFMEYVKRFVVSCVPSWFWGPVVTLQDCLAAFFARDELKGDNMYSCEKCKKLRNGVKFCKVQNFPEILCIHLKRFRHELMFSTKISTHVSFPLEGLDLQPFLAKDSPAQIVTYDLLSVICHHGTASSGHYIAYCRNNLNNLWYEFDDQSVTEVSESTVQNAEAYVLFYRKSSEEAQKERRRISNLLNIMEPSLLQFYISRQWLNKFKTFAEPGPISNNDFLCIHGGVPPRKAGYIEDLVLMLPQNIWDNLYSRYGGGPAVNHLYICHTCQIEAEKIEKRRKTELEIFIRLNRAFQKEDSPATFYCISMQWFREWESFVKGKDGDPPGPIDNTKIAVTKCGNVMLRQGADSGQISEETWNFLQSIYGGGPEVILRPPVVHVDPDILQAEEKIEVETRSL
IDE: Insulin-degrading enzyme (IDE, Homo sapiens, UniProt P14735)
Cereblon/Ikaros: Cereblon/Ikaros (Homo sapiens, UniProt Q13422+Q96SW2)
UniProt Q13422, sequence (whole entry, looked up): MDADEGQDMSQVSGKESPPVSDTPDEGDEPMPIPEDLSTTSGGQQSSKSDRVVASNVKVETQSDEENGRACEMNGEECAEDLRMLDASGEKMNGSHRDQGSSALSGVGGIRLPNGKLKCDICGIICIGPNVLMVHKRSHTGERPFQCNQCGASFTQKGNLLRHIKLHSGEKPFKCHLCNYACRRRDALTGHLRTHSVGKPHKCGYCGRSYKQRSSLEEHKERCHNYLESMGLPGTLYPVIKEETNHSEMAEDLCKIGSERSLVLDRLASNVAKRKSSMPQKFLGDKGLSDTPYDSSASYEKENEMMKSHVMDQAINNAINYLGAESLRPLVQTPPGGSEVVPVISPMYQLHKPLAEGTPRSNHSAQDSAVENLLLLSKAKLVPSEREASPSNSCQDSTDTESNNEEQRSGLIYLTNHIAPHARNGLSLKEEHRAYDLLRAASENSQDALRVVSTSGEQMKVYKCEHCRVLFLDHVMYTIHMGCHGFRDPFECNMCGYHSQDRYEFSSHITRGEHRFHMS
UniProt Q96SW2, sequence (whole entry, looked up): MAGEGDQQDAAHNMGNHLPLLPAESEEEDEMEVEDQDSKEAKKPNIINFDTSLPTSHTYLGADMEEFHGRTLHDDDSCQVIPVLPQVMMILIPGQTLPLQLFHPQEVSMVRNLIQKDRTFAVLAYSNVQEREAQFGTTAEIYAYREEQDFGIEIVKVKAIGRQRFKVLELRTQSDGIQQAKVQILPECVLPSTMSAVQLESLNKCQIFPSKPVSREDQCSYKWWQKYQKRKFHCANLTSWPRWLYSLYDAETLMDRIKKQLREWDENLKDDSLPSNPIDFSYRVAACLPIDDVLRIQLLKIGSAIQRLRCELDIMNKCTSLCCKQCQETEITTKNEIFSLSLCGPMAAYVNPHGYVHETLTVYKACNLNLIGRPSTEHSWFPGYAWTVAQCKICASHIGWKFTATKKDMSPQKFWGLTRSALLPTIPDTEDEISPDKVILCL
UniProt Q13336, sequence (whole entry, looked up): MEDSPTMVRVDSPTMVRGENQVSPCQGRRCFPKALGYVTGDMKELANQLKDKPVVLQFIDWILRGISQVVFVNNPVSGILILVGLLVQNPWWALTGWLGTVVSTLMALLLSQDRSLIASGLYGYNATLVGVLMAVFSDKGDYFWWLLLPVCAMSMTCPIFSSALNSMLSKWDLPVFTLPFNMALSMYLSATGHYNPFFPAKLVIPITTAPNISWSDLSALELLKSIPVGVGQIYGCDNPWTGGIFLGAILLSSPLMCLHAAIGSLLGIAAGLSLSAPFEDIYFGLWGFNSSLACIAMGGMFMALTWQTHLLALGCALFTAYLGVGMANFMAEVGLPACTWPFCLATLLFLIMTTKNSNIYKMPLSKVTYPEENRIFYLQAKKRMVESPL
UniProt P39146, sequence (whole entry, looked up): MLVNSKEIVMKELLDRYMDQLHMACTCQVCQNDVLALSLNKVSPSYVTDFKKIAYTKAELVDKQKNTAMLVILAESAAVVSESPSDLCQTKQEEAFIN
UniProt Q16774, sequence (whole entry, unmodified, looked up): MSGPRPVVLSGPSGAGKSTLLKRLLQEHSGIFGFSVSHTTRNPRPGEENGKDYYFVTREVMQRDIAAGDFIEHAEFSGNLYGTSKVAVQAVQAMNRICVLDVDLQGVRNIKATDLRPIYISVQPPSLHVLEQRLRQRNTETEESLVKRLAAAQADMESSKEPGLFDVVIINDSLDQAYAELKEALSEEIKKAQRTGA

SMILES	target or system	test	test system	setting	measurement	value
O=C(O)Cc1nc2ccccc2o1	USP33 ZnF-UBD domain	–	–	–	Kd	368 µM
Cc1cccc(-c2ccc([C@@H]3[C@@H](CO)N4CCCCN(C(=O)c5cccnc5)C[C@@H]34)cc2)c1	IDE	enzyme activity, inhibitor, fluorogenic kinetic	–	added: Mca-RPPGFSAFK(Dnp)-OH substrate	EC50	> 100 µM
CC(C)[C@H](NC(=O)[C@H](Cc1ccc(O)cc1)NC(=O)[C@H](Cc1ccc(O)cc1)NC(=O)[C@@H]1CCCN1C(=O)[C@H](CCC(=O)O)NC(=O)[C@H](CCC(=O)O)NC(=O)[C@H](Cc1c[nH]c2ccccc12)NC(=O)[C@@H]1CCCN1C(=O)[C@@H](NC(=O)[C@H](CCC(N)=O)NC(=O)c1ccc2c(c1)C(=O)OC21c2ccc(O)cc2Oc2cc(O)ccc21)C(C)C)C(=O)N[C@H](C(=O)N[C@@H](CCCCN)C(=O)N[C@@H](CCCCN)C(=O)N[C@@H](CO)C(=O)N[C@@H](CO)C(=O)NCC(=O)NCC(N)=O)C(C)C	–	–	human, plasma	intravenous infusion, 500 mg	plasma concentration	not detected
O=C(O)CNC(=O)c1ccc(C(=O)N2CCC(c3ccc(Cl)cc3)CC2)cn1	USP33 ZnF-UBD domain	–	–	–	Kd	> 1000 µM
Cc1cccc(-c2ccc([C@@H]3[C@@H](CO)N4C/C=C\CN(S(=O)(=O)c5cn(C)nc5C(F)(F)F)C[C@@H]34)cc2)c1C	IDE	enzyme activity, inhibitor, fluorescence kinetic	–	added: Mca-RPPGFSAFK(Dnp)-OH substrate	EC50	0.065 µM
NS(=O)(=O)c1nnc(NC(=O)C2CCC3(CCCCC3)CC2)s1	Enterococcus faecium γ-carbonic anhydrase	CO2 hydration, inhibitor, stopped-flow kinetics	–	–	Ki	0.327 µM
O=C(O)CCCc1ccccc1	HBL-1	–	–	1 µM, 120 h	viability	103%
Cc1cc(NC2=CC(=O)N(C3CCC(=O)NC3=O)C2=O)cc(C(C)(C)NCCc2ccc(C(F)(F)F)c(Cl)c2)c1 (stereo not drawn)	Cereblon/Ikaros	degrader, HiBiT luminescence, refers to: endogenous HiBiT-tagged protein	–	–	DC50	0.61 ± 0.4 µM
CC1(C(=O)Nc2nnc(S(N)(=O)=O)s2)CC1	Enterococcus faecium γ-carbonic anhydrase	CO2 hydration, inhibitor, stopped-flow kinetics	–	–	Ki	0.466 µM
NC(=O)Nc1ccccc1	Urea transporter 1 (Homo sapiens, UniProt Q13336)	urea transport inhibition	–	added: thiourea	Ki	1000 µM
CC(C)(NCCc1ccc(C(F)(F)F)c(Cl)c1)c1cccc(NC2=CC(=O)N(C3CCC(=O)NC3=O)C2=O)c1 (stereo not drawn)	Cereblon/Ikaros	degrader	human cells	–	DC50	0.01 ± 0.001 µM
Cc1ccccc1-c1ccc([C@H]2[C@@H](CO)N3CCCCN(S(=O)(=O)Cc4ccccc4)C[C@@H]23)cc1	IDE	enzyme activity, inhibitor, fluorogenic kinetic	–	added: Mca-RPPGFSAFK(Dnp)-OH substrate	EC50	44 µM
O=C(O)CCN1C(=O)c2ccccc2S1(=O)=O	USP33 ZnF-UBD domain	–	–	–	Kd	> 1000 µM
Cc1ccccc1C(=O)Nc1ccc2c(c1)CN(C1CCC(=O)NC1=O)C2=O (stereo not drawn)	Cereblon/Ikaros	degrader, live-cell HiBiT kinetic	Jurkat Ikaros-HiBiT LgBiT	–	DC50	> 10 µM
N#Cc1c2n(c3c(=O)n(CC(=O)O)cnc13)CCCC2	USP33 ZnF-UBD domain	–	–	–	Kd	> 1000 µM
Nc1ncnc2c1ncn2[C@@H]1O[C@H](COP(=O)(O)OP(=O)(O)O)[C@@H](O)[C@H]1O	GUK1 (Homo sapiens, UniProt Q16774, K17A)	binding, ITC	–	25 °C, added: GMP	Kd	> 200 µM
CC(C)C[C@H](NC(=O)C[C@H](O)[C@H](CC(C)C)NC(=O)[C@H](Cc1c[nH]cn1)NC(=O)CNC(=O)[C@@H](NC(=O)[C@H](C)NC(=O)[C@H](Cc1c[nH]c2ccccc12)NC(=O)[C@H](CCC(N)=O)NC(=O)[C@@H](Cc1ccccc1)NC(=O)COCCOCCNC(=O)CCC(C(=O)O)N1CCN(CC(=O)O)CCN(CC(=O)O)CCN(CC(=O)O)CC1)C(C)C)C(N)=O (stereo partly drawn) [lutetium-177 labelled]	–	–	female BALB/c nu/nu mice, intestines	intravenous, 50 pmol, 24 h	tissue uptake	0.02 ± 0.03 %ID/g
Cc1ccc(C(=O)O)cc1S(=O)(=O)Nc1cccc(C(=O)CCC(=O)O)c1	USP33 ZnF-UBD domain	–	–	–	Kd	537 µM
Nc1nc2c(ncn2[C@@H]2O[C@@H]3CO[P@](=O)(O)O[C@H]4[C@@H](O)[C@H](n5cnc6c(=O)[nH]c(N)nc65)O[C@@H]4CO[P@](=O)(O)O[C@H]3[C@H]2O)c(=O)[nH]1	Competence protein ComFB (comFB, Bacillus subtilis, UniProt P39146)	–	–	–	Kd	0.17 ± 0.07 µM
NS(=O)(=O)c1nnc(NC(=O)CN2CCC(F)(F)CC2)s1	Enterococcus faecium γ-carbonic anhydrase	CO2 hydration, inhibitor, stopped-flow kinetics	–	–	Ki	0.0491 µM

SMILES	target or system	test	test system	setting	measurement	value
O=C(O)CCC1=Nc2cccc3cccc(c23)N1	USP33 ZnF-UBD domain	–	–	–	Kd	> 1000 µM
NC(=O)c1cccnc1	HBL-1	–	–	1 µM, 120 h	viability	100%
Cc1cccc(-c2ccc([C@@H]3[C@H]4CN(C(=O)c5ccncc5)CCCCN4[C@H]3CO)cc2)c1	IDE	enzyme activity, inhibitor, fluorogenic kinetic	–	added: Mca-RPPGFSAFK(Dnp)-OH substrate	EC50	4.9 µM
Cc1cc(NC(=O)CCC(=O)O)nn1C	USP33 ZnF-UBD domain	–	–	–	Kd	> 1000 µM
Cc1cccc(-c2ccc([C@@H]3[C@@H](CO)N4C/C=C\CN(S(=O)(=O)c5cccnc5C)C[C@@H]34)cc2)c1C	IDE	enzyme activity, inhibitor, fluorescence kinetic	–	added: Mca-RPPGFSAFK(Dnp)-OH substrate	EC50	0.022 µM
CCC(C)(NCCc1ccc(Cl)c(Cl)c1)c1cccc(NC2=CC(=O)N(C3CCC(=O)NC3=O)C2=O)c1 (stereo not drawn)	Cereblon/Ikaros	degrader	–	–	DC50	0.07 ± 0.009 µM
O=C1CCC(N2Cc3cc(Nc4nc5ccccc5o4)ccc3C2=O)C(=O)N1 (stereo not drawn)	Cereblon/Ikaros	degrader, live-cell HiBiT kinetic	Jurkat Ikaros-HiBiT LgBiT	–	DC50	> 10 µM
Cc1ccccc1CC(=O)Nc1nnc(S(N)(=O)=O)s1	Enterococcus faecium γ-carbonic anhydrase	CO2 hydration, inhibitor, stopped-flow kinetics	–	–	Ki	0.0693 µM
O=C1CCC(N2C(=O)C=C(Nc3cccc(C4CCN(CCc5ccc(C(F)(F)F)c(Cl)c5)CC4)c3)C2=O)C(=O)N1 (stereo not drawn)	Cereblon/Ikaros	degrader, HiBiT luminescence, refers to: endogenous HiBiT-tagged protein	–	–	DC50	0.9 ± 0.25 µM
CCC(=O)N1[C@H](CO)[C@H](c2ccc(-c3ccccc3OC)cc2)[C@@H]1CNC(C)=O	IDE	enzyme activity, inhibitor, fluorogenic kinetic	–	added: Mca-RPPGFSAFK(Dnp)-OH substrate	EC50	5.8 µM
NS(=O)(=O)c1nnc(NC(=O)CC2CC3CCC2C3)s1 (stereo not drawn)	Enterococcus faecium γ-carbonic anhydrase	CO2 hydration, inhibitor, stopped-flow kinetics	–	–	Ki	0.241 µM
N#Cc1cccc(C(=O)Nc2ccc3c(c2)CN(C2CCC(=O)NC2=O)C3=O)c1 (stereo not drawn)	Cereblon/Ikaros	degrader, live-cell HiBiT kinetic	Jurkat Ikaros-HiBiT LgBiT	–	DC50	> 10 µM
CC1(C)CCN(CC(=O)Nc2nnc(S(N)(=O)=O)s2)CC1	Enterococcus faecium γ-carbonic anhydrase	CO2 hydration, inhibitor, stopped-flow kinetics	–	–	Ki	0.135 µM
Cc1ccccc1-c1ccc([C@H]2[C@@H](CO)N3CCCCN(C(=O)NC4CCCC4)C[C@H]23)cc1	IDE	enzyme activity, inhibitor, fluorogenic kinetic	–	added: Mca-RPPGFSAFK(Dnp)-OH substrate	EC50	0.88 µM
O=C(O)CC1Oc2ccccc2NC1=O (stereo not drawn)	USP33 ZnF-UBD domain	–	–	–	Kd	> 1000 µM
CC(C(=O)Nc1nnc(S(N)(=O)=O)s1)C1CCCCC1 (stereo not drawn)	Enterococcus faecium γ-carbonic anhydrase	CO2 hydration, inhibitor, stopped-flow kinetics	–	–	Ki	0.256 µM
CCC(CC)(NCCc1ccc(C(F)(F)F)c(Cl)c1)c1cccc(NC2=CC(=O)N(C3CCC(=O)NC3=O)C2=O)c1 (stereo not drawn)	Cereblon/Ikaros	degrader, HiBiT luminescence, refers to: endogenous HiBiT-tagged protein	–	–	DC50	0.1 ± 0.036 µM
COc1ccccc1-c1ccc([C@H]2[C@@H](CO)N3CCCCN(C(=O)NC4CCCC4)C[C@H]23)cc1	IDE	enzyme activity, inhibitor, fluorogenic kinetic	–	added: Mca-RPPGFSAFK(Dnp)-OH substrate	EC50	2.6 µM
CC1(C(=O)Nc2nnc(S(N)(=O)=O)s2)CCC1	Enterococcus faecium γ-carbonic anhydrase	CO2 hydration, inhibitor, stopped-flow kinetics	–	–	Ki	0.348 µM

A few entries again:
SMILES	target or system	test	test system	setting	measurement	value
O=C(O)CCC1=Nc2cccc3cccc(c23)N1	USP33 ZnF-UBD domain	–	–	–	Kd	> 1000 µM
NC(=O)c1cccnc1	HBL-1	–	–	1 µM, 120 h	viability	100%
Cc1cccc(-c2ccc([C@@H]3[C@H]4CN(C(=O)c5ccncc5)CCCCN4[C@H]3CO)cc2)c1	IDE	enzyme activity, inhibitor, fluorogenic kinetic	–	added: Mca-RPPGFSAFK(Dnp)-OH substrate	EC50	4.9 µM
